Measurements pooled from the literature.
Compare with care: the assays were run in different laboratories. ± marks the error that the study gave.
Chain of UniProt Q99500 (whole entry, looked up): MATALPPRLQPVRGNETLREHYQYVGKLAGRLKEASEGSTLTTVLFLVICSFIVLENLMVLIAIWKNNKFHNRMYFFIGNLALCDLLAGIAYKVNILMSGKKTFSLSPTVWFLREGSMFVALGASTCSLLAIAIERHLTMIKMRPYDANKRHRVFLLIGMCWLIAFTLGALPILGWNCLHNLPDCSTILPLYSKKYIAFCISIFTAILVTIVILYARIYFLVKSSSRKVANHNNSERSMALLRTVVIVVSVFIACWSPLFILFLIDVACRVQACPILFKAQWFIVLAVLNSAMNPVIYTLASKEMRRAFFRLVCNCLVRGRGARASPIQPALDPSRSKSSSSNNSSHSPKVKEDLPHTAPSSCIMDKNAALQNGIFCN

Cc1onc(-c2c(F)cccc2Cl)c1C(=O)N[C@@H]1C(=O)N2[C@@H]1SC(C)(C)[C@@H]2C(=O)O: “deviation from nominal concentration” -1.5% (human whole blood; concentration not given, 8 h, 4 °C).
CCN(CC)C(=O)[C@@H]1C=C2c3cccc4[nH]cc(c34)C[C@H]2N(C)C1: “List of Complaints score” 3 (refers to: impaired concentration; healthy volunteers; dose not given, 12 to 24 h; baseline: placebo, direction not given).
CC[C@H](C)[C@@H]1NC(=O)[C@@H]2CCCN2C(=O)[C@H](CC(C)C)NC(=O)[C@H](CC(C)C)NC(=O)CNC(=O)[C@@H](NC(=O)[C@@H](NC(=O)[C@H](CC(=O)O)NC(=O)CNC(=O)[C@@H](NC(=O)[C@H](C)NC(=O)CNC(=O)[C@H](CCCCN)NC(=O)[C@H](CC(C)C)NC(=O)[C@H](CC(C)C)NC(=O)[C@H](CCCCN)NC(=O)CNC(=O)[C@@H](NC(=O)[C@@H](N)CC(C)C)C(C)C)C(C)C)C(C)C)CSSC[C@@H](C(=O)O)NC1=O — result for “log2 fold change”: -2.59 (RNA-seq, refers to: Gmfg mRNA; mouse traumatic brain injury, frontal cortex and hippocampus; dose not given; baseline: TBI plus compound vs TBI).
With Cc1ncc(OC[C@@]2(c3cccc(F)c3)C[C@H]2C(=O)Nc2ccc(F)cn2)c(C)n1 the fraction absorbed was 100% (estimated from MDCK Papp; MDCK knock-out, human; 1 µM, 90 min).
CO[C@H]1C[C@@H]2CC[C@@H](C)[C@@](O)(O2)C(=O)C(=O)N2CCCC[C@H]2C(=O)O[C@H]([C@H](C)C[C@@H]2CC[C@@H](OC(=O)NCCOCCOCCOCCOCCOCCOCCOCCOCCC(=O)N3CCc4cc(Cn5nc(-c6ccc7oc(N)nc7c6)c6c(N)ncnc65)ccc4C3)[C@H](OC)C2)C[C@@H](O)[C@H](C)/C=C(\C)[C@@H](O)[C@@H](OC)C(=O)[C@H](C)C[C@H](C)/C=C/C=C/C=C/1C: “AE leading to discontinuation” 12.5% (patients with advanced solid tumours; intravenous, 8 mg weekly, grade 3 or higher).
The tissue uptake of C[C@@H](O)[C@@H](CO)NC(=O)[C@@H](CCCNC(=N)N)NC(=O)[C@@H]1CCCN1C(=O)[C@@H]1CSSC[C@H](NC(=O)[C@H](Cc2ccccc2)NC(=O)CN2CCN(CC(=O)O)CCN(CC(=O)O)CCN(CC(=O)O)CC2)C(=O)N[C@@H](Cc2ccc(O)cc2)C(=O)N[C@@H](Cc2ccccc2)C(=O)N[C@@H](CCC(N)=O)C(=O)N[C@@H](CC(N)=O)C(=O)N1 [gallium-68 labelled] is reported as 0.24 %ID/g (healthy Wistar rat, heart; intravenous, 8 MBq, 60 min, individual animals).
Under “share of modified total exemestane metabolites”, C=C1C[C@H]2[C@@H]3CC[C@H](O[C@@H]4O[C@H](C(=O)O)[C@@H](O)[C@H](O)[C@H]4O)[C@@]3(C)CC[C@@H]2[C@@]2(C)C=CC(=O)C=C12 is recorded as 53% (postmenopausal women, serum; UGT2B17 and GSTA1 genotypes).
Cc1ncc2n1-c1ccc(Cl)cc1C(c1ccccc1F)=NC2 gave an oral bioavailability of 65% (human).
COc1ccc2c(c1)[C@]13CCCC[C@@H]1[C@H](C2)N(C)CC3 has a half-life decrease of 3.15 h (human, female; 30 mg, day 22, together with: hop dietary supplement; baseline: day 0).
The logP of COc1ccc2c3c1O[C@H]1[C@@H](O)CC[C@@]4(O)[C@@H](C2)N(C)CC[C@]314 is reported as 1.14 (1 h).
The solubility of C#Cc1ccc2c(c1)C(c1ccccn1)=NCc1c(-c3cnco3)ncn1-2.Cl is reported as 13.1 mg/mL (shake flask; aqueous buffer; 24 h, pH 1, 25 °C).
With CC[C@H](C)[C@H](NC(=O)[C@H](Cc1ccccc1)NC(=O)[C@H](CCC(=O)O)NC(=O)[C@H](CCCNC(=N)N)NC(=O)[C@H](C)NC(=O)[C@H](C)NC(=O)[C@H](CCC(N)=O)NC(=O)[C@H](CCC(=O)O)NC(=O)[C@H](CCC(=O)O)NC(=O)[C@H](CC(C)C)NC(=O)[C@H](Cc1ccc(O)cc1)NC(=O)[C@H](CO)NC(=O)[C@H](CO)NC(=O)[C@@H](NC(=O)[C@H](CC(=O)O)NC(=O)[C@H](CO)NC(=O)[C@@H](NC(=O)[C@H](Cc1ccccc1)NC(=O)[C@@H](NC(=O)CNC(=O)[C@H](CCC(=O)O)NC(=O)[C@H](C)NC(=O)CCc1c[nH]cn1)[C@@H](C)O)[C@@H](C)O)C(C)C)C(=O)N[C@@H](C)C(=O)N[C@@H](Cc1c[nH]c2ccccc12)C(=O)N[C@@H](CC(C)C)C(=O)N[C@H](C(=O)N[C@@H](CCCNC(=N)N)C(=O)NCC(=O)N[C@@H](CCCNC(=N)N)C(=O)N[C@@H](CCCCNC(=O)COCCOCCNC(=O)COCCOCCNC(=O)CC[C@H](NC(=O)CCCCCCCCCCCCCCCCC(=O)O)C(=O)O)C(=O)NCC(=O)NCC(=O)N[C@@H](CO)C(=O)N[C@@H](CCCCNc1c(NCCCCCN(O)C(=O)CCC(=O)NCCCCCN(O)C(=O)CCC(=O)NCCCCCN(O)C(C)=O)c(=O)c1=O)C(=O)O)C(C)C [zirconium-89 labelled] the tissue uptake was 0.47 %ID/g (gamma counting; rat, stomach-duodenum; intravenous, 3 nmol/kg, 24 h).
COc1cc(C)[nH]c(=O)c1CNC(=O)c1c(C)n([C@H](C)C2CCN(CC(F)(F)F)CC2)c2ccccc12 has an AUC(0-t) of 59900 ng·h/mL (female CB17 SCID mice, HT-1376 xenograft, plasma; 75 mg/kg, day 1).
For O=C1c2c(O)c(=O)ccn2N([C@@H]2c3ccccc3SCc3c2ccc(F)c3F)[C@@H]2COCCN12, the plasma concentration was 4.84 ng/mL (BALB/c mice, plasma; oral, 0.5 mg/kg baloxavir marboxil, 0.5 h).
For COc1cc(Nc2ncc(F)c(Nc3ccc4c(n3)NC(=O)C(C)(C)O4)n2)cc(OC)c1OC, the IC50 was greater than 10 µM (CA2 (Homo sapiens, UniProt P00918)).
With CC(C)C[C@H](NC(=O)C[C@H](O)[C@H](CC(C)C)NC(=O)[C@H](Cc1c[nH]cn1)NC(=O)CNC(=O)[C@@H](NC(=O)[C@H](C)NC(=O)[C@H](Cc1c[nH]c2ccccc12)NC(=O)[C@H](CCC(N)=O)NC(=O)[C@@H](Cc1ccccc1)NC(=O)CCNC(=O)CCSc1nnc(NCCC(=O)NCCC(=O)NCCCC[C@H](NC(=O)N[C@@H](CCC(=O)O)C(=O)O)C(=O)O)c2c1CCC1C(CC2)C1COC(=O)NCCNC(=O)CC[C@H](C(=O)O)N1CCN(CC(=O)O)CCN(CC(=O)O)CC1)C(C)C)C(N)=O (stereo partly shown) [gallium-68 labelled] the tissue uptake was 0.16 %ID/g (athymic NMRI nude mouse, blood; intravenous, 533 pmol, 2 h).
Cc1cc(C(=O)NC(C)(C)COc2cccc3c2C(N)=NS(=O)(=O)N3)cc(C)n1 has a revertant ratio of 1.4 (Escherichia coli; Ames test, initial; WP2 uvrA; 5000 µg/plate; baseline: solvent control).
O=C(O)C[C@H](NC(=O)[C@H](CC(=O)O)NC(=O)[C@H](CC(=O)O)NC(=O)[C@H](CC(=O)O)NC(=O)[C@H](CC(=O)O)NC(=O)[C@H](CC(=O)O)NC(=O)[C@H](CC(=O)O)NC(=O)[C@H](CC(=O)O)NC(=O)[C@H](CC(=O)O)NC(=O)[C@H](CC(=O)O)NC(=O)[C@H](CC(=O)O)NC(=O)[C@H](CCCCNC(=O)c1ccc(C(=O)NCCOCCOB2BBBBBB3BBBB3B2)cc1)NC(=O)CN1CCN(CC(=O)O)CCN(CC(=O)O)CCN(CC(=O)O)CC1)C(=O)O [gallium-67 labelled] has a tissue uptake of 0.46 %ID/g (gamma counting; mouse, ddY, male, 6 weeks old, blood; intravenous, 37 kBq, 1 h).
Cc1ncc2n1-c1ccc(Cl)cc1C(c1ccccc1F)=NC2 gave an AUC(0-90 min) of 0.0367 ± 0.0043 µM·h (wild-type mice, plasma; intravenous, 0.3 mg/kg, together with: 3-day PB, BC 500 mg/kg and PCN 10 mg/kg).
C=C1C[C@H]2[C@@H]3CC[C@H](O)[C@@]3(C)CC[C@@H]2[C@@]2(C)C=CC(=O)C=C12 — result for “share of total exemestane metabolites”: 1.8% (postmenopausal women, serum; UGT2B17 and GSTA1 genotypes).
For O=C(O)c1cn(Cc2cccc(Cl)c2)c2ccccc12, the aspartate aminotransferase was 84 U/L (F344 rat, male, serum; oral, 150 mg/kg/day, 2 days, group mean).
COC(=O)[C@@H](NC(=O)c1nn(Cc2ccc(F)cc2)c2ccccc12)C(C)(C)C — result for “Kp,uu, brain to plasma, unbound partition coefficient”: 2.95 (mouse; intraperitoneal, 3 mg/kg, 0.5 h; baseline: brain over plasma).
For CN1CCN(c2cc(-c3ccncc3)c(-c3ccc4ccccc4c3)nn2)CC1, the activation was -2.1% (S1PR3 (Homo sapiens, UniProt Q99500); agonist, FLIPR; 12.5 µM).
C[C@H]1CN(c2n[nH]c3nc(N[C@H]4CC[C@H](NS(=O)(=O)CCC(F)(F)F)CC4)ncc23)CCO1 has a relative abundance of 1.06 (SYK (Homo sapiens, UniProt P43405); inhibitor, Kinobeads competition profiling; 0.032 µM; baseline: vehicle).
CCCCCCOC(=O)NC(=N)c1ccc(NCc2nc3cc(C(=O)N(CCC(=O)OCC)c4ccccn4)ccc3n2C)cc1 — result for “participants with adverse event”: 0% (refers to: Influenza; human; oral, 75 mg, alone).
For OCc1ncc2n1-c1ccc(Cl)cc1C(c1ccccc1F)=NC2, the half-life was 3.3 h (human, plasma; 7.5 mg midazolam, day 26, geometric mean, metabolite of midazolam, together with: midazolam 7.5 mg alone).
For Cc1ccc(-c2nc3ccc(C)cn3c2CC(=O)N(C)C)cc1, the fu,mic was 0.985 (human liver microsomes 0.5 mg/mL; 5 µM, 24 h).
The Km of O=C(O)c1cn(Cc2ccc(F)cc2)c2ccccc12 is reported as 117 ± 35 µM (glucuronidation; human intestinal microsomes; 60 min, 37 °C, together with: UDPGA).
Under “grade 3 influenza-like symptoms”, COc1cc2c(Oc3ccc4[nH]c(C)cc4c3F)ccnc2cc1OCC1(N)CC1 is recorded as 0% (paediatric recurrent refractory sarcoma; 10 mg).
COC(=O)OCOc1c2n(ccc1=O)N([C@@H]1c3ccccc3SCc3c1ccc(F)c3F)[C@@H]1COC3(CC3)CN1C2=O: “share of hydrolytic clearance by AADAC” 86.5% (human liver S9; time not given, together with: vinblastine).
The testosterone level of CCCCCCCCCCC(=O)O[C@H]1CC[C@H]2[C@@H]3CCC4=CC(=O)CC[C@]4(C)[C@H]3CC[C@]12C is reported as 524 ng/dL (human male serum; 500 ng/mL, NaF 25.0 mg/mL, baseline testosterone 544 ng/dL).

Repeated from above:
CO[C@H]1C[C@@H]2CC[C@@H](C)[C@@](O)(O2)C(=O)C(=O)N2CCCC[C@H]2C(=O)O[C@H]([C@H](C)C[C@@H]2CC[C@@H](OC(=O)NCCOCCOCCOCCOCCOCCOCCOCCOCCC(=O)N3CCc4cc(Cn5nc(-c6ccc7oc(N)nc7c6)c6c(N)ncnc65)ccc4C3)[C@H](OC)C2)C[C@@H](O)[C@H](C)/C=C(\C)[C@@H](O)[C@@H](OC)C(=O)[C@H](C)C[C@H](C)/C=C/C=C/C=C/1C: “AE leading to discontinuation” 12.5% (patients with advanced solid tumours; intravenous, 8 mg weekly, grade 3 or higher).
The tissue uptake of C[C@@H](O)[C@@H](CO)NC(=O)[C@@H](CCCNC(=N)N)NC(=O)[C@@H]1CCCN1C(=O)[C@@H]1CSSC[C@H](NC(=O)[C@H](Cc2ccccc2)NC(=O)CN2CCN(CC(=O)O)CCN(CC(=O)O)CCN(CC(=O)O)CC2)C(=O)N[C@@H](Cc2ccc(O)cc2)C(=O)N[C@@H](Cc2ccccc2)C(=O)N[C@@H](CCC(N)=O)C(=O)N[C@@H](CC(N)=O)C(=O)N1 [gallium-68 labelled] is reported as 0.24 %ID/g (healthy Wistar rat, heart; intravenous, 8 MBq, 60 min, individual animals).
Under “share of modified total exemestane metabolites”, C=C1C[C@H]2[C@@H]3CC[C@H](O[C@@H]4O[C@H](C(=O)O)[C@@H](O)[C@H](O)[C@H]4O)[C@@]3(C)CC[C@@H]2[C@@]2(C)C=CC(=O)C=C12 is recorded as 53% (postmenopausal women, serum; UGT2B17 and GSTA1 genotypes).
Cc1ncc2n1-c1ccc(Cl)cc1C(c1ccccc1F)=NC2 gave an oral bioavailability of 65% (human).
